Measurements gathered from unrelated publications.
Each numbered part is a random draw from the data of one study; scales do not carry over between parts.

Study 1 — method: protein binding microarray; form: double-stranded DNA, one strand shown; sample: in vitro; tested at: not given; baseline: not given; reading: higher = stronger binding
Target: Histone acetyltransferase KAT6A, winged helix 2, GST fusion (KAT6A, Homo sapiens, UniProt Q92794, residues 85-181)
Notes: 8-mer, flanks averaged, mean of 2 arrays, mostly near background
Target sequence (chain): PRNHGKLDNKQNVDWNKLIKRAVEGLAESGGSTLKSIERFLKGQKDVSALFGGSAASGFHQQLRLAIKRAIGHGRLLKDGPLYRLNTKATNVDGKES
Strand | E-score
AACCCGTA | -0.24
ATCAGCCG | 0.14
CTCTTCAC | -0.0541
ACCGCGGT | 0.176
CGATCCGC | 0.14
CTCGGAAG | -0.00458
AGTAACGC | -0.043
CCGGAAGA | 0.0818
CTGCAAGC | 0.0593
GCCCTATA | -0.157
AGTCACAC | -0.194
GTTCACTA | -0.0715
CTCAGCGC | 0.012
ATGAGGAA | -0.078
ATTATCAC | 0.0161
AAAACGCA | 0.191
TAGTACTA | -0.00789
AATGGTAC | -0.125
CAGCTTCC | 0.00409
CACGTAGG | -0.178
AATAGCTA | 0.011

Study 2 — method: RNA Bind-n-Seq; form: RNA; sample: in vitro; tested at: 365 nM; baseline: no-protein control; reading: higher = stronger binding
Target: RNA binding protein fox-1 homolog 2, RRM domain, GST-SBP tag (RBFOX2, Homo sapiens, UniProt O43251-10, residues 100-194)
Notes: natural RNA segment, single round, ends assumed
Shared flanks, not repeated: GGGAGUUCUACAGUCCGACGAUC … UGGAAUUCUCGGGUGCCAA
Target sequence (chain): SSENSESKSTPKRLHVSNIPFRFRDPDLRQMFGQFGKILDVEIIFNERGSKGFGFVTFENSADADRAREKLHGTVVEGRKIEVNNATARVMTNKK
Strand | RBNS enrichment (R)
GUAUCCCUCUGCCACACCCCAGGCCCUGCGAGGGGCUAUCGAGAGGAGCUCACUGUGGGAUGGGGUUGACCUCUGCCGCCUGCCUGGGUAUCUGGGCCUGGCCAUGGCUG | 0.306
GGUGGGCAUCUCGAUGCUUCUUUGCCUUAAUGAUGGCCACAUCUGGGCUGCUCUGCACCCACGGGAGAGGCUGGCCCAGCUGCAGACUGCUUAGGGACUUCUGUGUCCAU | 0.256
CUAAGUAGCUCUUCCCGCUGUGUCCGUGUGCACACUGUAGCCCCACAGCCCCGUAGAACCUGCAGUGUCCUGACUAAAGCUGCCGACUUGCUCUCAUUUGCAGUUUCUGU | 0.763
AUCCCAUGAUGAUGAAGGAAAAUGGAGAGAUUUUUCUUUUUAACUCUGCUGGUCAGAGAUGAAGCCACGCCUUUCCAUUUUUCAAUGCUGCAUAUUUAAUCUGCAACAAA | 0.299
GAGAAAAGCCUAGACUUUUAGUUGAUAGCCAGUUGAAAUAUCAUUGAUAGAAUUUUAGUUUUAGGAAAAAUUGGUUUGAUUUCUAGCUUUAUUACUAUUAGGUAUGUGAG | 0.703
UGAUUUGCUUGUUUCAUACUGACAUCUAAAGACAUCAGCCUUCUCUUUGGCAACCCUGGGGAUACUCCUCUGCACCAUAACUUAUUAAUGUUUUUUUAGACAAGGCUAAA | 1.75
CAUGGGCAGCAAAUGGAAAGUCUUCCAAUCAGUACUCCAGGCCUUGAACACGUGCACACAUGAGUUCCAAUUUUGCUUCCUUUUGUUAUAAUGUUUCAACAAACAGAAGG | 2.01
UUGUUACAUCCAGGGCAUGGCAGUGGCCUCAGCCUUAAACUUUUGUUCCUACUCCCACCCUCAGCGAACUGGGCAGCACGGGGAGGGUUUGGCUACCCCUGCCCAUCCCU | 0.477
CUCACUAAAGCAUGAAAUGUGAAUUUUUAUUGUUGUACAUACGAUUUAAGGUAUUUAAAGUAUUUUCUUCUCUGUGAGAAGGUUUAUUGUUAAUACAAGGUAUAAUAAAA | 13
GUAAAGAAUUGGUGUAGUCAUGACUUUAGCUGAUACUCUUAUGUACGAGAUCUGUCUCUGCUGUUUAACUUCAUUGGAUUAAUCAGCUGGUUUCAACUCUACUGCGAAAC | 0.324
CUGUGGUUGACUGAACUGCUGUUGCUGUCCACAUUCCACCCUGACCCAUUCCCUGCUUGCGCCUAGGGUGUUUUCCAGAUAGCCCAGAGUUCCAGCUUUGACAGCCUGAU | 0.637
AAACUGUUGUCCUCCUGCUAAACACUGUCUGUUAAGGGACUCAGUCAUAUAUGCUUAUUGUUUUGUUCCAUGUGAUUCUUGUUUCCCUAUGCUCUUUAAUGGAGAAUCUG | 2.94

Study 3 — method: protein-binding microarray; form: double-stranded DNA, one strand shown; sample: in vitro; tested at: 940 nM top; notes: 60-bp whole probe; added: salmon DNA 0.4 mg/ml; baseline: random background probes; reading: higher = stronger binding; shared flanks, not repeated: GCCTAGCAC … GTCTTGATTCGCTTGACGCTGCTG
Target: Interferon regulatory factor 5, full length, phosphomimetic (IRF5, Homo sapiens, UniProt Q13568-2, residues 1-514, S451D/S453D/S456D/S462D)
Strand | fitted relative affinity
CGTATCTTCATTGTCATGTAGTGCTAG | 0.981 z-score
AGTGCTATACCACTCTTGCTGTGCTAG | 0.265 z-score
TCATACATCTCTCTTAAACTGTGCTAG | 1.24 z-score
GACGGTTTCGGTTTCGGGCCGTGCTAG | 13.7 z-score
TTAGGGCTGGGGACTGGGTTAGTGCTA | -0.337 z-score
GACGGTCTCCTACCGCTGACGTGCTAG | -0.188 z-score
TTAGGTTTTGGTATCGGTTAGTGCTAG | 8.74 z-score
TTAGCTTTCGGACTGGGTTAGTGCTAG | 2.16 z-score
CTAGAACTGAGTATCGATTAGTGCTAG | 4.34 z-score
TTAGGTTGCGACTATCGGTTAGTGCTA | 1 z-score
GACGATATCAGTATCGAGTCGTGCTAG | 2.93 z-score
TTAGATCTCACTCTCGATTAGTGCTAG | 3.72 z-score
TCAGTTCTCTTTTATTTACTGTGCTAG | 1.6 z-score
GACGGACTGGGTTCCGGGACGTGCTAG | -0.463 z-score
TTATAACTGAGTTTCGATTAGTGCTAG | 8.07 z-score
TCAATTTTCCCTCCCTAACTGTGCTAG | 1.38 z-score
TTAGAACTGTGGTTTCGATTAGTGCTA | 6.33 z-score
GGATGTGTCTTAAATAGGGGAGTGCTA | -0.0976 z-score

Study 4 — method: RNA Bind-n-Seq; form: RNA; sample: in vitro; tested at: 200 nM; notes: whole 134-nt RNA, ends assumed; added: 150 mM LiCl; baseline: input library; reading: higher = stronger binding; library: 7-deaza-guanosine replaces G
Target: Fragile X messenger ribonucleoprotein 1, C-terminal low-complexity region (Fmr1, Mus musculus, UniProt P35922)
Shared flanks, not repeated: GGGAGUUCUACAGUCCGACGAUC … UGGAAUUCUCGGGUGUCAAGG
Strand | log2 enrichment
GCAGGAAGUAAAAACAAAUGGAAAUGUUUCGGAUAGUGGCAGGGGUGGGGGUUGCUAAGGAAAGGGUGGGAUGGGAGUGGGUAAAGAGUU | 1.6
UCCUGUGCUACACAUCGUAUGUACCGAAUCGGUUUUUUGGGGUUUUUUGGUUUUUUGGGGAAAGUAUUAUGUUACGCCGUUCGGAUCUGC | -1.22
ACCAUGCAGGUGGGCAUCUUUGGGAAGUGGGGCAAGGGGGGGAUAGGCAGGGGGGUAACACUUUGGGAACAGGUGGUCCCAGGUCGUUUC | 1.13
UCAAGUCCUGUGCUACACAUCGUAUGUACCGAAUCGGUUUUUGGUGGUUUUUGGAAAGUAUUAUGUUACGCCGUUCGGAUCUGCACUUCC | -0.693
CACAGACAACACGCACCCACACAGACACAGAGGGAAGGGGUUGGGAUGGGGACAGGGUGCACAGCAGAGCGGGGUAGGACCCCAGCCCCU | 0.436
GUCCUGUGCUACACAUCGUAUGUACCGAAUCGGGAAAAAAGGAAAAAAGGGAAAAAAGGAAAGUAUUAUGUUACGCCGUUCGGAUCUGCA | -0.0833
GCAGGAUGUAAAAACAAAUGGAAAUGCUUCGGAUAGUGGCAGGGGUGGGGGUUGCUAAGGAAAGGGUGGGAUGGGAGUGGGUAAAGAGUU | 2.11
AGUCCUGUGCUACACAUCGUAUGUACCGAAUCAAAUUUUUUUAAACCCAAAUUUAAAAAAGUAUUAUGUUACGCCGUUCGGAUCUGCACU | -3.12
GCAGGAAGUAAAAACAAAUGGAAAUGCUUCGGAUAGUGGCAGGGGUGGGGGGUGCUAAGGAAAGGGUGGGAUGGGAGUGGGUAAAGAGUU | 1.4
UCCUGUGCUACACAUCGUAUGUACCGAAUCGGGGCCCCCCGGCCCCCCGGCCCCCCGGGGAAAGUAUUAUGUUACGCCGUUCGGAUCUGC | 0.782
UCAAGUCCUGUGCUACACAUCGUAUGUACCGAAUCGGGGAAAGGAAAGGAAAGGGAAAGUAUUAUGUUACGCCGUUCGGAUCUGCACUUC | -0.582

Some of these lines once more (study 3):
Strand | fitted relative affinity
TTAGATCTCACTCTCGATTAGTGCTAG | 3.72 z-score
TCAGTTCTCTTTTATTTACTGTGCTAG | 1.6 z-score
GACGGACTGGGTTCCGGGACGTGCTAG | -0.463 z-score
TTATAACTGAGTTTCGATTAGTGCTAG | 8.07 z-score
TCAATTTTCCCTCCCTAACTGTGCTAG | 1.38 z-score
TTAGAACTGTGGTTTCGATTAGTGCTA | 6.33 z-score
